Experimental data of several laboratories.
Every numbered part comes from another study and shows a few of its results, in no order.

Study 1 — method: universal PBM; molecule type: double-stranded DNA, one strand shown; matrix: in vitro; concentration: not given; direction: higher = stronger binding
Target: Sal-like protein 4, full length isoform B (SALL4, Homo sapiens, UniProt Q9UJQ4-2, residues 1-616)
Setting: 8-mer, flanks averaged, mean of replicates
| Sequence | E-score |
| --- | --- |
| ACCCCTAG | -0.123 |
| ACATCGAG | -0.0524 |
| GTTGTGGA | -0.0551 |
| GTATGCGA | 0.103 |

Study 2 — method: protein binding microarray; molecule type: double-stranded DNA, one strand shown; matrix: in vitro; concentration: not given; reference: not given; direction: higher = stronger binding
Target: Histone acetyltransferase KAT6A, both winged helices, GST fusion (KAT6A, Homo sapiens, UniProt Q92794, residues 1-181)
Setting: 8-mer, flanks averaged, mean of 2 arrays, mostly near background
Construct (chain): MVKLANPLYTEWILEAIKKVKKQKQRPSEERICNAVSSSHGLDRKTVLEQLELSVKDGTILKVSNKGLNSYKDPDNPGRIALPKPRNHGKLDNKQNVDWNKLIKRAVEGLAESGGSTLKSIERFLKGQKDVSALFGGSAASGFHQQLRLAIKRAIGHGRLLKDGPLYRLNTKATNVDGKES
| Sequence | E-score |
| --- | --- |
| GCGAATGA | 0.134 |
| GACCAACC | 0.0327 |
| AAGTTGAG | -0.184 |
| AGACGGAA | 0.152 |
| AGTGTACA | -0.00792 |
| ATAGTCGG | 0.0884 |

Mixed results
MAX full length: Protein max, full length (MAX, Homo sapiens, UniProt P61244-2, residues 1-151)
| Substance | target | assay | test system | setting | scale | measurement | value |
| --- | --- | --- | --- | --- | --- | --- | --- |
| ACACGCGG | MAX full length | protein-binding microarray | double-stranded DNA, one strand shown, in vitro | not given, k-mer, scored over probes, only values ≥0.25 | higher = stronger binding | E-score | 0.472 |
| PhoQ, residues 284 288 289 292 302 303 SSTLSG | PhoP, residues 12 14 15 18 19 NQAHL (Escherichia coli, UniProt P23836) | Sort-seq, measured: YFP reporter | E. coli | PhoQ-PhoP variant library, with: 10 µM Mg2+ | reference: high Mg2+ state, higher = stronger signaling | fold induction | 6.69 |
| ACGCGGTA | MAX full length | protein-binding microarray | double-stranded DNA, one strand shown, in vitro | not given, k-mer, scored over probes, only values ≥0.25 | higher = stronger binding | E-score | 0.319 |

For quick reference, copied from above (mixed results):
| Substance | target | assay | test system | setting | scale | measurement | value |
| --- | --- | --- | --- | --- | --- | --- | --- |
| ACACGCGG | MAX full length | protein-binding microarray | double-stranded DNA, one strand shown, in vitro | not given, k-mer, scored over probes, only values ≥0.25 | higher = stronger binding | E-score | 0.472 |
